Published values of several laboratories.
Each line is one published result; not all experiments were run side by side. ± gives the spread as reported.
Cell line: SW480

SMILES = COc1c(O)cc2oc3c(Br)c(O)c(CCC(C)C)c(O)c3c(=O)c2c1CCC(C)C; read-out = cell growth or viability; time = 48 h; IC50 = 17.3 µM
SMILES = COc1ccc(-c2coc3c(CC=C(C)C)c(O)c(CC=C(C)C)c(O)c3c2=O)cc1O; read-out = cell growth or viability; method = MTT; IC50 = 72.7 µM
SMILES = Cc1ccc(C(C)C)cc1.Cc1ncc(CO)c(C=NNC2=Nc3ccccc3-c3[nH]c4ccc(Br)cc4c3C2)c1O.[Cl-].[Cl][Os+]; read-out = cell growth or viability; method = MTT; time = 96 h; IC50 = 4.1 µM
SMILES = COc1c(O)cc2oc3cc4c(c(O)c3c(=O)c2c1CCC(C)C)CC(O)O4 (stereo not drawn); read-out = cell growth or viability; time = 48 h; IC50 = 15.9 µM
SMILES = N[C@@H]1CCCC[C@H]1N.O=C1[O][Pt]2([O]C1=O)[O]C(=O)C(=O)[O]2; read-out = cell viability; method = MTT; time = 96 h; IC50 = 14 ± 3 µM
SMILES = C[N+]1(C)CC[NH2+][Pt-2]1([OH])([Cl])([Cl])[O]C(=O)CCC(=O)OCCOC(=O)CCC(=O)[O][Pt-2]1([OH])([Cl])([Cl])[NH2+]CC[N+]1(C)C; read-out = cell growth or viability; method = MTT; time = 96 h; IC50 = 84 µM
SMILES = COc1c(O)cc2oc3cc4c(c(O)c3c(=O)c2c1CCC(C)(C)O)CCC(C)(C)O4; read-out = cell growth or viability; time = 48 h; IC50 = > 40 µM
SMILES = Cc1c([O][Ru][Cl])c(=O)ccn1CCCCn1ccc(=O)c([O][Ru][Cl])c1C.Cc1ccc(C(C)C)cc1.Cc1ccc(C(C)C)cc1; read-out = cell growth or viability; method = MTT; time = 96 h; IC50 = 28 µM
SMILES = COC(=O)CCC(=O)[O][Pt-2]1([OH])([Cl])([Cl])[NH2+]CC[N+]1(C)C; read-out = cell growth or viability; method = MTT; time = 96 h; IC50 = 8.4 µM
SMILES = CC(C)=CCc1c(O)c(CC=C(C)C)c2occ(-c3ccc(O)c(O)c3)c(=O)c2c1O; read-out = cell growth or viability; method = MTT; IC50 = > 100 µM
SMILES = COc1c(O)cc2oc3c(Cl)c(O)c(CC=C(C)C)c(O)c3c(=O)c2c1CC=C(C)C; read-out = cell growth or viability; time = 48 h; IC50 = > 40 µM
SMILES = C[O][Pt-2]([NH3+])([NH3+])([Cl])([Cl])[O]C(=O)CCC(=O)OCCO; read-out = cell growth or viability; method = MTT; time = 96 h; IC50 = 37 µM
SMILES = Cc1ccc(C(C)C)cc1.Oc1ccccc1C=NNC1=Nc2ccccc2-c2[nH]c3ccc(Br)cc3c2C1.[Cl-].[Cl][Os+]; read-out = cell growth or viability; method = MTT; time = 96 h; IC50 = 1.7 µM
SMILES = COc1c(O)c(Br)c2oc3c(Br)c(O)c(CCC(C)C)c(O)c3c(=O)c2c1CCC(C)C; read-out = cell growth or viability; time = 48 h; IC50 = 21.3 µM
SMILES = C[O][Pt-2]1([Cl])([Cl])([O]C(=O)CCC(=O)OCCOC(=O)CCC(=O)[O][Pt-2]2([Cl])([Cl])([O]C)[NH2+]CC[N+]2(C)C)[NH2+]CC[N+]1(C)C; read-out = cell growth or viability; method = MTT; time = 96 h; IC50 = 19 µM

Repeated from above:
SMILES = Cc1ccc(C(C)C)cc1.Cc1ncc(CO)c(C=NNC2=Nc3ccccc3-c3[nH]c4ccc(Br)cc4c3C2)c1O.[Cl-].[Cl][Os+]; read-out = cell growth or viability; method = MTT; time = 96 h; IC50 = 4.1 µM
SMILES = C[O][Pt-2]([NH3+])([NH3+])([Cl])([Cl])[O]C(=O)CCC(=O)OCCO; read-out = cell growth or viability; method = MTT; time = 96 h; IC50 = 37 µM
